{"data": "Measurements collected from several papers", "lecA": "PA-I galactophilic lectin (lecA, Pseudomonas aeruginosa, UniProt Q05097)", "Complement C3": "Complement C3 (Homo sapiens, UniProt P01024)", "Histone chaperone ASF1A": "Histone chaperone ASF1A (Homo sapiens, UniProt Q9Y294)", "note": "Compare with care: the assays were run in different laboratories. ± gives the spread as reported.", "UniProt Q05097, sequence (whole entry, looked up)": "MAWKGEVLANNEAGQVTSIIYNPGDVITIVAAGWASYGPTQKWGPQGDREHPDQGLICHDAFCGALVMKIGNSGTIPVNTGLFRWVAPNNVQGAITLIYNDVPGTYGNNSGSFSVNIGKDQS", "UniProt P01024, sequence (whole entry, looked up)": "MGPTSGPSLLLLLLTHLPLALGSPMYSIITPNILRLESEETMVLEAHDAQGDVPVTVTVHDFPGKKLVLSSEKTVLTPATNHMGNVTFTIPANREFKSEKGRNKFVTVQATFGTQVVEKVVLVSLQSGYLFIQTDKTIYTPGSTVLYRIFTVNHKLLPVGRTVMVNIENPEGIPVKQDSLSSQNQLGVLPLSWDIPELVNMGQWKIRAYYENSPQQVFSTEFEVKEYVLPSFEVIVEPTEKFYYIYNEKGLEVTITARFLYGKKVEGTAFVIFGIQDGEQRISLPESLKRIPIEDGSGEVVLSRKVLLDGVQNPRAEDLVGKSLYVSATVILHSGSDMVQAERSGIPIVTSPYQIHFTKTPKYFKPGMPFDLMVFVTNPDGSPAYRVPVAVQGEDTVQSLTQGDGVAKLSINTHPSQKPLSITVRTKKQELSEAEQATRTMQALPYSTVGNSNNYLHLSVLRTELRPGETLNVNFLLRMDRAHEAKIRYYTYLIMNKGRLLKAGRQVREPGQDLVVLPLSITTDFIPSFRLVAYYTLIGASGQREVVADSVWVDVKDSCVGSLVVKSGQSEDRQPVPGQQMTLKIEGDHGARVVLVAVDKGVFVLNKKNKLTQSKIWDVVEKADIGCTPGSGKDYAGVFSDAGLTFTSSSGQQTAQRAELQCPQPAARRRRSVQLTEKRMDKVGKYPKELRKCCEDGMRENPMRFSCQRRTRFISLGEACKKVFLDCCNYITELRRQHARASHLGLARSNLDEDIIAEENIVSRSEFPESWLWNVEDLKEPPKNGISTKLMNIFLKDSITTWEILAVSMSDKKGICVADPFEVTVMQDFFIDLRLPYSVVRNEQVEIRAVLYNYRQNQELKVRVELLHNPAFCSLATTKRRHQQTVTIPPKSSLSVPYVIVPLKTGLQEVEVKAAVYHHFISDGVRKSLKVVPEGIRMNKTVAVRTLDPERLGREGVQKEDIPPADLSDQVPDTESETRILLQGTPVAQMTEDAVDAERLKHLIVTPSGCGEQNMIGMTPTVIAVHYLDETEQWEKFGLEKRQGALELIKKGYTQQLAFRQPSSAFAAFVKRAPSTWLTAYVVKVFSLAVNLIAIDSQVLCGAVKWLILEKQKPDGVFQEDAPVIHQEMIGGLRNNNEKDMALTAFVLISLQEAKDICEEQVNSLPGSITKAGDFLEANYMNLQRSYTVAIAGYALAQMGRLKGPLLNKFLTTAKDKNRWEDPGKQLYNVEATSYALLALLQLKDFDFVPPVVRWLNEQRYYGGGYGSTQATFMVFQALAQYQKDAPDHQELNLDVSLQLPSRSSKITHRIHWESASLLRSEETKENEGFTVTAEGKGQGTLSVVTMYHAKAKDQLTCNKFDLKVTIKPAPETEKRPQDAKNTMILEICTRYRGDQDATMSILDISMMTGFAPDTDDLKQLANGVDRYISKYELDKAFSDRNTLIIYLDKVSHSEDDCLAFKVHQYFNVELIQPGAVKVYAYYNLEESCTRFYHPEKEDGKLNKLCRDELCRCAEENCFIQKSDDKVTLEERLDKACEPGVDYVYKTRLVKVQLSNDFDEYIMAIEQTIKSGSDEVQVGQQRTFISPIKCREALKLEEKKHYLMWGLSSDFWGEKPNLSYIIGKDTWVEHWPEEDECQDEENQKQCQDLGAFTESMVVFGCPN", "UniProt Q9Y294, sequence (whole entry, looked up)": "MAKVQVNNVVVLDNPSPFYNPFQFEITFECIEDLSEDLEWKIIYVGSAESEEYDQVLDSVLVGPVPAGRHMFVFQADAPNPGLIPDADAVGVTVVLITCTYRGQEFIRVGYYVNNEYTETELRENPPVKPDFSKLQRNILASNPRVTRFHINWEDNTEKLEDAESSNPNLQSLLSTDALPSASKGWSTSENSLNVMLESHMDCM", "UniProt Q9ULV8, sequence (whole entry, looked up)": "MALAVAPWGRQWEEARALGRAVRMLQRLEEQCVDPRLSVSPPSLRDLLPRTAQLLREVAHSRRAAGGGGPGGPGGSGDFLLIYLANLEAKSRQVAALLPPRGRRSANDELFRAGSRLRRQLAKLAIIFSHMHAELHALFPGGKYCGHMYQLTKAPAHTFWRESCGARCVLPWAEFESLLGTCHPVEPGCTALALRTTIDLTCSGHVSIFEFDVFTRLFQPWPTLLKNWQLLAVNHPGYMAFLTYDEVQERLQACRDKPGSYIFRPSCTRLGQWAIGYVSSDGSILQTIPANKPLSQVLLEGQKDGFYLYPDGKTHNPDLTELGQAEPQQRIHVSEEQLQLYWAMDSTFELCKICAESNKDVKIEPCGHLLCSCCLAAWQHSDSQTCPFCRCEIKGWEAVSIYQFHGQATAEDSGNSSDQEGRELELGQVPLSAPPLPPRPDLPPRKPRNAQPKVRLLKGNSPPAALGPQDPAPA", "UniProt O31698, sequence (whole entry, looked up)": "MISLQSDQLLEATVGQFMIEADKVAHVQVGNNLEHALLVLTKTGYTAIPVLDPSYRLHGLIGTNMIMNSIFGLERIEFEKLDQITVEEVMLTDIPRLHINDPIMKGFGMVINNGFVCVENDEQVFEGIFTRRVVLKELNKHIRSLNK", "UniProt P63104, sequence (whole entry, looked up)": "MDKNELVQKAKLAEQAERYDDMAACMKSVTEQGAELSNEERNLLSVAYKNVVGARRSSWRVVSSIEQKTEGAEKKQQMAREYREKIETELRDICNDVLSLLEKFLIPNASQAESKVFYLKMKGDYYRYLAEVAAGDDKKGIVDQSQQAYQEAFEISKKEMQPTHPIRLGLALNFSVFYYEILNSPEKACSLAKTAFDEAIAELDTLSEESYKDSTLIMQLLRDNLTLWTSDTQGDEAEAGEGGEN", "UniProt O14786, sequence (whole entry, looked up)": "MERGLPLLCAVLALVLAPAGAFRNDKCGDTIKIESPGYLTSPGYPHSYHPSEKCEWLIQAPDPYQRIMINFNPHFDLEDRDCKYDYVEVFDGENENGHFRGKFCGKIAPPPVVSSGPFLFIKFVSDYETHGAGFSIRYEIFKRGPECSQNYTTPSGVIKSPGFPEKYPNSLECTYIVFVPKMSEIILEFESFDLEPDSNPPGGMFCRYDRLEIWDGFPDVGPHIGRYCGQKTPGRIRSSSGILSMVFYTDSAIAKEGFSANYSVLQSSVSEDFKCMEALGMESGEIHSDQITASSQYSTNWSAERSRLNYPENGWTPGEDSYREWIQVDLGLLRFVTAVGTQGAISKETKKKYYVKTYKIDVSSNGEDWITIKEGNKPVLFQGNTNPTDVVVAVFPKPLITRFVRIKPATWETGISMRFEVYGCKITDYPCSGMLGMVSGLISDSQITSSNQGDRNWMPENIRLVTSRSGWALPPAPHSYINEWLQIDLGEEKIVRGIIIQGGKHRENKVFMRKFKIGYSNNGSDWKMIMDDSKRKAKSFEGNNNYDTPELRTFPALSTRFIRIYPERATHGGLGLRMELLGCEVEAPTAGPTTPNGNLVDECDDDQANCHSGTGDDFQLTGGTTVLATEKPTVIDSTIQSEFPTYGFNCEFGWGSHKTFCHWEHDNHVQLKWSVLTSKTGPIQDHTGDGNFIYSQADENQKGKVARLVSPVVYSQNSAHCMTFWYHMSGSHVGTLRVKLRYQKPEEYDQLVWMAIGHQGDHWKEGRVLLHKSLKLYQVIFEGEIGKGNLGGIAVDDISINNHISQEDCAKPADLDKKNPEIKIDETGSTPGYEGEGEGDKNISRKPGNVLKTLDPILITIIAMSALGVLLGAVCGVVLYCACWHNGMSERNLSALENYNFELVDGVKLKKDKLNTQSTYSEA", "UniProt Q9Y468, sequence (whole entry, looked up)": "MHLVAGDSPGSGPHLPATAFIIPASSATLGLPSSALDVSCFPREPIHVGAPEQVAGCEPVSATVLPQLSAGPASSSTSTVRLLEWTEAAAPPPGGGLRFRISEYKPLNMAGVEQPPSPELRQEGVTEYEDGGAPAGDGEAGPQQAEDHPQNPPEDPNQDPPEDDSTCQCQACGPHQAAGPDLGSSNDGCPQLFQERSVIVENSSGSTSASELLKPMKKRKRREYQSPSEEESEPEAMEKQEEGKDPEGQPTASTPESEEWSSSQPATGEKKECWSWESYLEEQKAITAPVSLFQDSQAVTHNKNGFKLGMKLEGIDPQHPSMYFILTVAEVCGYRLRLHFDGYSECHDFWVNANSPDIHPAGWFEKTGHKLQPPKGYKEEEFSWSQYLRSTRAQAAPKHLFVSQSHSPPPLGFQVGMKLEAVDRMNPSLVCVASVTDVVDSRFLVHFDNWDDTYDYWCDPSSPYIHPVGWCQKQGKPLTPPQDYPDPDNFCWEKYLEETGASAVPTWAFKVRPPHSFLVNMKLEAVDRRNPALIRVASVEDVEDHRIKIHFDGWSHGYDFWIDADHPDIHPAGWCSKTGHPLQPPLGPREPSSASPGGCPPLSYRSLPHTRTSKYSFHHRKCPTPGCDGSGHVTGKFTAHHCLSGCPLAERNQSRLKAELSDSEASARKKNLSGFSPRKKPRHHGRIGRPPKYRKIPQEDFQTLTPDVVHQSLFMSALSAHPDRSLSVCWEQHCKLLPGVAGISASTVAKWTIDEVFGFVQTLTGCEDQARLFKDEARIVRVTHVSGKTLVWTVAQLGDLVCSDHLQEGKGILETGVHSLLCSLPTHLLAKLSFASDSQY", "UniProt P83916, sequence (whole entry, looked up)": "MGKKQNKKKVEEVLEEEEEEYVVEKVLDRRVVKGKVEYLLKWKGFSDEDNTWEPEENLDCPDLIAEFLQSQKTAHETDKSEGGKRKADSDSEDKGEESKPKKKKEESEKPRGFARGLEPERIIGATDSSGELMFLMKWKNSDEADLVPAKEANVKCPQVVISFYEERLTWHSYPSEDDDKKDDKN"}
{"SMILES": "Cc1ccc(OCC(=O)N[C@@H](Cc2cn(CCNC(=O)c3ccc(S[C@@H]4O[C@H](CO)[C@H](O)[C@H](O)[C@H]4O)cc3)nn2)C(=O)NCCO)cc1", "target": "lecA", "test": "binding, SPR", "Kd": "7.7 µM"}
{"SMILES": "COc1cc(-c2nc3ccc(C(=O)NCCCN(C)C)cc3n2C2CCC2)cc(OC)c1OC", "target": "ACVRL1 (Homo sapiens, UniProt P37023)", "test": "binding, TR-FRET", "Kd": "0.0039 µM"}
{"SMILES": "CC[C@H](C)[C@H](NC(C)=O)C(=O)N[C@H]1CSSC[C@@H](C(=O)N[C@H](C(N)=O)[C@@H](C)O)NC(=O)[C@H](CCCN=C(N)N)NC(=O)[C@H](Cc2c[nH]cn2)NC(=O)[C@H](C)NC(=O)CNC(=O)[C@H](Cc2c[nH]c3ccccc23)NC(=O)[C@H](CC(=O)O)NC(=O)[C@H](CCC(N)=O)NC(=O)[C@H](Cc2ccc(O)cc2)NC(=O)[C@H](C(C)C)NC1=O", "target": "Complement C3", "test": "binding, ITC", "setting": "pH 7.4", "Kd": "0.556 µM"}
{"SMILES": "C[n+]1ccc(/C=N/NC(=O)c2cccc(C(=O)N/N=C/c3cc[n+](C)c4ccccc34)n2)c2ccccc21", "target": "telomeric G4 DNA hybrid-2", "test": "binding, fluorescence titration", "test system": "100 mM KCl buffer", "setting": "pH 7.2, added: labelled G4 DNA 2 nM", "Kd": "0.0113 ± 0.001 µM"}
{"SMILES": "OC[C@H]1O[C@@H](Oc2ccc(-c3cn([C@@H]4O[C@H](CO)[C@@H](n5cc(CCCCc6cn([C@H]7[C@H](O)[C@@H](O)[C@H](n8cc(-c9ccc(O[C@@H]%10O[C@H](CO)[C@H](O)[C@H](O)[C@H]%10O)cc9)nn8)O[C@@H]7CO)nn6)nn5)[C@H](O)[C@H]4O)nn3)cc2)[C@H](O)[C@@H](O)[C@H]1O", "target": "lecA", "test": "binding, ITC", "setting": "pH 7.5", "Kd": "0.092 µM"}
{"SMILES": "CC(=O)N[C@@H](Cc1c[nH]c2ccccc12)C(=O)N[C@H]1CSSC[C@@H](C(=O)N[C@@H](Cc2c[nH]c3ccccc23)C(N)=O)NC(=O)[C@H](CCCNC(=N)N)NC(=O)[C@H](Cc2c[nH]cn2)NC(=O)[C@H](C)NC(=O)CNC(=O)[C@H](Cc2c[nH]c3ccccc23)NC(=O)[C@H](CC(=O)O)NC(=O)[C@H](CCC(N)=O)NC(=O)[C@H](Cc2c[nH]c3ccccc23)NC(=O)[C@H](C(C)C)NC1=O", "target": "Complement C3", "test": "binding, SPR", "Kd": "0.38 µM"}
{"SMILES": "NC(=O)CN1C(=O)C(O)(CC(=O)c2cccc(N)c2)c2ccccc21 (centres unmarked)", "target": "uncharacterized protein (Leishmania donovani, UniProt A0A3Q8IA09)", "test": "competitive ITC", "setting": "added: aspartate 60 µM", "Kd": "2.4 µM"}
{"SMILES": "CC1=CC(C)(C)Nc2c(C(=O)O)cc(F)cc21", "target": "E3 ubiquitin-protein ligase CBL-C (Homo sapiens, UniProt Q9ULV8)", "test": "binding, NMR", "Kd": "840 µM"}
{"SMILES": "CCOC(=O)C1=CN([C@@H]2O[C@H](CO)[C@@H](O)[C@H]2O)C=CC1", "target": "SIRT5 (Homo sapiens, UniProt Q9NXA8, R105A)", "test": "binding, MST", "Kd": "130 µM"}
{"SMILES": "CSCC[C@H](NC(C)=O)C(=O)NCC(=O)NCC(=O)N[C@@H](CCC(=O)O)C(=O)N[C@@H](CC(C)C)C(=O)N[C@H](C(=O)N[C@H](C(=O)NCC(=O)N[C@@H](CC(C)C)C(=O)NCC(=O)N[C@@H](C)C(=O)N[C@@H](CC(C)C)C(=O)N[C@@H](CCCNC(=N)N)C(=O)N[C@@H](CCCNC(=N)N)C(=O)N[C@@H](CCCNC(=N)N)C(=O)N[C@@H](CCCCN)C(=O)N[C@@H](CCCNC(=N)N)C(=O)N[C@@H](CC(C)C)C(=O)N[C@@H](CC(C)C)C(=O)N[C@@H](CCC(=O)O)C(=O)N[C@@H](CCC(N)=O)C(=O)N[C@@H](CCC(=O)O)C(=O)N[C@@H](CCCCN)C(=O)N[C@@H](CCCNC(=N)N)C(N)=O)[C@@H](C)O)C(C)C", "target": "Kcnma1 (Mus musculus, UniProt Q08460)", "test": "channel block, inside-out patch clamp", "how to read": "upper bound", "Kd": "< 25 µM"}
{"SMILES": "CC[C@H](C)[C@H](NC(=O)[C@H](CCCNC(=N)N)NC(=O)NC[C@H](CCC(N)=O)NC(=O)NC[C@H](CCc1ccccc1)NC(=O)NC[C@H](CCCNC(=N)N)NC(=O)NC[C@H](Cc1ccc2ccccc2c1)NC(=O)[C@H](CCCCN)NC(=O)[C@H](CCC(=O)O)NC(C)=O)C(=O)N[C@@H](C)C(N)=O", "target": "Histone chaperone ASF1A", "test": "binding, ITC", "setting": "pH 7.5", "Kd": "15.4 µM"}
{"SMILES": "N=C(N)NCCC[C@H](NC(=O)[C@@H](N)CS)C(=O)NCC(=O)N[C@@H](CC(=O)O)C(=O)N[C@@H](CCCCN)C(=O)O", "target": "Neuropilin-1 (NRP1, Homo sapiens, UniProt O14786)", "test": "binding", "Kd": "1.4 µM"}
{"SMILES": "CCCC[C@@H](CNC(=O)N[C@@H](CCC(N)=O)CNC(=O)N[C@@H](CCCNC(=N)N)C(=O)N[C@H](C(=O)N[C@@H](C)C(N)=O)[C@@H](C)CC)NC(=O)NC[C@H](CCCNC(=N)N)NC(=O)NC[C@H](Cc1ccc2ccccc2c1)NC(=O)[C@H](CCCCN)NC(=O)[C@H](CCC(=O)O)NC(C)=O", "target": "Histone chaperone ASF1A", "test": "binding, ITC", "setting": "pH 7.5", "Kd": "4.3 µM"}
{"SMILES": "Cn1ccc(-c2cc(Cl)c(Cl)c3[nH]c4c(c23)CN(C(=O)CO)CC4)n1", "target": "CGAS (Homo sapiens, UniProt Q8N884)", "test": "binding, surface plasmon resonance", "setting": "added: dsDNA and ATP", "Kd": "0.141 ± 0.08 µM"}
{"SMILES": "C[C@H](NC(=O)[C@H](Cc1ccccc1)NC(=O)c1ccc(C(F)(F)F)cc1)C(=O)N[C@H](C(=O)N[C@@H](CCCC[N+](C)(C)C)C(=O)N[C@@H](CO)C(N)=O)C1CCCC1", "target": "Chromobox protein homolog 1 (Homo sapiens, UniProt P83916)", "test": "binding, ITC", "Kd": "6.21 µM"}
{"SMILES": "Cc1cccc2c1N(C(=O)n1ccnn1)CC2", "target": "KAI2 (Arabidopsis thaliana, UniProt Q9SZU7, Y124F)", "test": "binding, ITC", "Kd": "no binding"}
{"SMILES": "CC[C@H](C)[C@H](NC(=O)[C@H](CC(C)C)NC(=O)[C@@H](NC(=O)[C@@H](N)CC(=O)O)[C@@H](C)CC)C(=O)N[C@H](C(=O)N[C@H](C(=O)NCC(=O)NCC(=O)O)C(C)C)[C@@H](C)CC", "target": "Rgg3 Streptococcus pyogenes", "test": "competition fluorescence polarization", "setting": "added: 10 nM FITC-labelled compound", "Kd": "0.22 µM"}
{"SMILES": "O=C(COc1ccc(F)cc1)N[C@@H](Cc1cn(CCNC(=O)c2ccc(S[C@@H]3O[C@H](CO)[C@H](O)[C@H](O)[C@H]3O)cc2)nn1)C(=O)NCCO", "target": "lecA", "test": "binding, ITC", "Kd": "8.6 µM"}
{"SMILES": "CC(C)[C@@H]1NC(=O)[C@@H](NC(=O)[C@@H](N)CCC(N)=O)CSSC[C@@H](C(=O)N[C@@H](Cc2c[nH]c3ccccc23)C(N)=O)NC(=O)[C@H](CCC(N)=O)NC(=O)[C@H](CC(N)=O)NC(=O)[C@H](CCC(N)=O)NC(=O)CNC(=O)[C@H](Cc2c[nH]c3ccccc23)NC(=O)[C@H](CC(=O)O)NC(=O)[C@H](CCC(N)=O)NC(=O)[C@H](Cc2c[nH]c3ccccc23)NC1=O", "target": "Complement C3", "test": "surface plasmon resonance", "setting": "25 °C, 1:1 binding model", "Kd": "0.5 µM"}
{"SMILES": "C=CCCO[C@@H]1C[C@@H](C(=O)N[C@@H](CCCNC(=N)N)C(=O)N[C@@H](CCCNC(=N)N)C(=O)N[C@@H](CCCNC(=N)N)C(N)=O)N(C(=O)[C@@H]2CCCN2C(=O)[C@@H](NC(=O)[C@@H]2C[C@H](OCC=C)CN2C(=O)[C@@H]2CCCN2C(=O)[C@@H]2CCCN2C(=O)[C@@H](NC(C)=O)C(C)C)C(C)C)C1", "target": "Growth factor receptor-bound protein 2, N-terminal SH3 domain (GRB2, Homo sapiens, UniProt P62993)", "test": "binding, tryptophan fluorescence", "test system": "PBS", "setting": "21 °C", "Kd": "12.2 ± 0.4 µM"}
{"SMILES": "C[n+]1cc2cc3cc(ccc31)NC(=O)CCCCC(=O)Nc1ccc3c(c1)cc(c[n+]3C)C(=O)NCc1cccc(c1)CNC2=O", "target": "Pu22 G-quadruplex DNA", "test": "microscale thermophoresis", "Kd": "3.45 ± 0.38 µM"}
{"SMILES": "Nc1ncnc2c1ncn2[C@@H]1O[C@@H]2COP(=O)(O)O[C@H]3[C@@H](O)[C@H](n4cnc5c(N)ncnc54)O[C@@H]3COP(=O)(O)O[C@H]2[C@H]1O", "target": "darB (Bacillus subtilis, UniProt O31698)", "test": "binding, ITC", "Kd": "0.027 µM"}
{"SMILES": "CNCCCC[C@H](NC(=O)[C@H](CCCNC(=N)N)NC(=O)[C@H](Cc1c[nH]cn1)NC(=O)[C@@H](N)CCCNC(=N)N)C(=O)N[C@H](C(=O)N[C@@H](CC(C)C)C(=O)N[C@@H](CCCNC(=N)N)C(=O)N[C@@H](CC(=O)O)C(=O)N[C@@H](CC(N)=O)C(=O)O)C(C)C", "target": "Lethal(3)malignant brain tumor-like protein 1 (Homo sapiens, UniProt Q9Y468)", "Kd": "24 ± 1 µM"}
{"SMILES": "CNCCCC[C@H](NC(=O)[C@@H](NC(=O)[C@H](CCCNC(=N)N)NC(=O)[C@H](C)N)[C@@H](C)O)C(=O)N[C@@H](CCC(N)=O)C(=O)N[C@H](C(=O)N[C@@H](C)C(=O)N[C@@H](CCCNC(=N)N)C(=O)N[C@@H](CCCCN)C(=O)N[C@@H](CO)C(=O)N[C@H](C(=O)NCC(=O)NCC(=O)N[C@@H](CCCCN)C(=O)N[C@@H](C)C(=O)O)[C@@H](C)O)[C@@H](C)O", "target": "Histone-lysine N-methyltransferase 2A, PHD3-bromodomain cassette (KMT2A, Homo sapiens, UniProt Q03164, del1666-1702)", "test": "binding, isothermal titration calorimetry", "setting": "pH 7.5, 25 °C, coexpressed protein complex, added: H3K4me peptide", "Kd": "53 µM"}
{"SMILES": "O=C(COCCCc1ccccc1)N[C@@H](Cc1cn(CCNC(=O)c2ccc(S[C@@H]3O[C@H](CO)[C@H](O)[C@H](O)[C@H]3O)cc2)nn1)C(=O)NCCO", "target": "lecA", "test": "binding, SPR", "Kd": "7.2 µM"}
{"SMILES": "CC(C)=CCC[C@](C)(O)[C@H]1CC[C@]2(C)[C@@H]1[C@H](O)C[C@@H]1[C@@]3(C)CC[C@H](O)C(C)(C)[C@@H]3CC[C@]12C", "target": "YWHAZ (Homo sapiens, UniProt P63104)", "test": "biolayer interferometry", "setting": "30 °C", "Kd": "46.8 ± 1.2e-05 µM"}
